Measurements from different studies.
A part holds a random share of what one study measured.

Block 1 — technique: universal PBM; molecule type: double-stranded DNA, one strand shown; sample: in vitro; tested at: 600 nM; reading: higher = stronger binding
Target: Sal-like protein 4, full length isoform A (SALL4, Homo sapiens, UniProt Q9UJQ4, residues 1-1053)
Sequence of UniProt Q9UJQ4 (whole entry, looked up): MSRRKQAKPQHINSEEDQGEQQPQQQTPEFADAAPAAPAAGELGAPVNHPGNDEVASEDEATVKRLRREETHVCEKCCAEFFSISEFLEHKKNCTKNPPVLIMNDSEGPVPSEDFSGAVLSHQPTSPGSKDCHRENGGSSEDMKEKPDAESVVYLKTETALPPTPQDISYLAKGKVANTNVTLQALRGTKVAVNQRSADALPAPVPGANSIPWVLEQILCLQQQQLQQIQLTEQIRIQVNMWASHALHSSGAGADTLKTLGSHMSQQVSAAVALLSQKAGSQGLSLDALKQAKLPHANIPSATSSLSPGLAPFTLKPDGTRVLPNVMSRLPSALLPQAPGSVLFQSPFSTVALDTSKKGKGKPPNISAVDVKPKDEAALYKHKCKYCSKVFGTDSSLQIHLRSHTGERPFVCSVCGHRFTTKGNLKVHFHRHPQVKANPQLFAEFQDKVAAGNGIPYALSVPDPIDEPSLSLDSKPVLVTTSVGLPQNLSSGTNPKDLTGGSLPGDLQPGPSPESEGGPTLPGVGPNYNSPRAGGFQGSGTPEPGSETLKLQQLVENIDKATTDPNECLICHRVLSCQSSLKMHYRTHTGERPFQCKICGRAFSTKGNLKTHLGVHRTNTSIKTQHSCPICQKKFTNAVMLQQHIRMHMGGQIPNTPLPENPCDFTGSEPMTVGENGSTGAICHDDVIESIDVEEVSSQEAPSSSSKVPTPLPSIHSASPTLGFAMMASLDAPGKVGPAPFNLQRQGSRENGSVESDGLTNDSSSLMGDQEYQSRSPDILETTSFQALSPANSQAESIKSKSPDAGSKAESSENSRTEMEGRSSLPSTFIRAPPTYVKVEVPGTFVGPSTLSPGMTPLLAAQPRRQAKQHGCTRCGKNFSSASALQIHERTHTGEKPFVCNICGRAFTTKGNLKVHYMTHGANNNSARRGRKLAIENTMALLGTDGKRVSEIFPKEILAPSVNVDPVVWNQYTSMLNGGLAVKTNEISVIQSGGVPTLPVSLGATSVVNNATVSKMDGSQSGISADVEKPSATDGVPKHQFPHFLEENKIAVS
Notes: 8-mer, flanks averaged, mean of replicates
The E-score of `ACACGTGT` is reported as 0.0401.
`CTGGGTCC` has an E-score of -0.305.
`AATTTTTA` gave an E-score of 0.435.
`CTACACGC` gave an E-score of -0.174.
With `GGTCCAAA` the E-score was -0.0966.
For `AACTCGCC`, the E-score was -0.124.
The E-score of `CCTGTGGC` is reported as -0.266.
For `CAGGAGTA`, the E-score was -0.0789.
For `CTTTATAC`, the E-score was 0.217.
`GAGCGTGC` has an E-score of -0.182.
The E-score of `CACTTGAC` is reported as -0.0908.
The E-score of `CGCGTAAG` is reported as -0.0114.
With `ATAAACAC` the E-score was 0.193.
With `AAATGAGT` the E-score was 0.241.
For `CTGTACGA`, the E-score was 0.0937.
`AGCCTAGC` gave an E-score of -0.223.
With `ATTTTCAG` the E-score was 0.252.
With `CCACTGCG` the E-score was -0.184.
With `AAAACGCC` the E-score was -0.0593.
For `ACGGCAAC`, the E-score was -0.181.
`CGTTGGCA` has an E-score of -0.0485.
With `ATAAGCGG` the E-score was 0.138.
The E-score of `TGGCGAAA` is reported as -0.00941.
The E-score of `TGCACCAA` is reported as 0.0195.
`CTTCTCAC` gave an E-score of 0.00372.

Block 2 — technique: Sort-seq; refers to: YFP reporter; sample: E. coli; notes: PhoQ-PhoP variant library; added: 10 µM Mg2+; reference: high Mg2+ state; reading: higher = stronger signaling
Substance: PhoQ, residues 284 288 289 292 302 303 ASTSDA
PhoP, residues 12 14 15 18 19 HHYTI (Escherichia coli, UniProt P23836) — fold induction: 2.86.
It gave 5.85 for fold induction (PhoP, residues 12 14 15 18 19 AYFRS (Escherichia coli, UniProt P23836)).
The fold induction was 15.9 (PhoP, residues 12 14 15 18 19 SFCSL (Escherichia coli, UniProt P23836)).

Block 3 — technique: RNA Bind-n-Seq; molecule type: RNA; sample: in vitro; tested at: 365 nM; reference: no-protein control; reading: higher = stronger binding
Target: RNA binding protein fox-1 homolog 2, RRM domain, GST-SBP tag (RBFOX2, Homo sapiens, UniProt O43251-10, residues 100-194)
Notes: natural RNA segment, single round, ends assumed
Residues (chain): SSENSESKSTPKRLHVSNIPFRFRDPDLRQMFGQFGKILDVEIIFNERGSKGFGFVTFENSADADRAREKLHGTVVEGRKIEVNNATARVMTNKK
Under “RBNS enrichment (R)”, `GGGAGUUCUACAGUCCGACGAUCUUUAACUCCAGAAUAUGGUGAUACAGUUUAUGUUAAGAAACAUAUUUUAAUUUAUUAUGCCAUGAAUUUAUAAACAUUUAAUAUAAAACAUUAUAACAUUUGCUGUUUUAUGGAAUUCUCGGGUGCCAA` is recorded as 1.3.
Under “RBNS enrichment (R)”, `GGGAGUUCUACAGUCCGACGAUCUUACUGCUGCUUUAGAGCAUGAGUGCCUAGGUGCCUGGAUGCAUGUGUGCCCGGAUGCAUGGAUGCCUGGGUUCCUAGAUGCAUAGAUGCCUGGGUGCCUGGAUGCAUGGUGGAAUUCUCGGGUGCCAA` is recorded as 28.4.
`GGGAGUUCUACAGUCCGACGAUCUAUUUAUUUGUACCCACCCUUCCCUCACUUCUGCCCAGCUGGGCUCCAGAGAGAGGACCCUGCCCAUCCUCCUUUUGAAGCCAGGACUUAUUCUUGGUUCAUCAUACUCCUGGAAUUCUCGGGUGCCAA` — result for “RBNS enrichment (R)”: 0.544.
For `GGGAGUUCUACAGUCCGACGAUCAGGGACAGAGGUGAAAUUUUGAGUGACUUGAGUCUCUUGCAGUCCCUGAUUACACAGAACCUUUCUGGGCUACUUGGAGCAUCACGAAUAGUCUUUCCUGUACUUACCAGUGGAAUUCUCGGGUGCCAA`, “RBNS enrichment (R)” read 0.344.
`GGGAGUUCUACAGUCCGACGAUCCUAGUAUAGAAGUGGCAUAUCCCACUAGCUUCUACUUUCCUGAUAUAUUUUUACAAAUAACUUUAUUUGCUUUACAUUAUUUCUAAAAGGAAAAAUCUGAGGAAACCCUUUGGAAUUCUCGGGUGCCAA` — result for “RBNS enrichment (R)”: 0.51.
`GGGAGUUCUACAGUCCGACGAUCGGUUUCCAAGAUAGCACAGUGACCACAAAGGGAGAUUUUAGCAGAGCCAGCCUGCUAGAAGGCAGGAGUAGCCAGAAUGGAACAUCUGUGCAGAAAGUAGGCCAUUCUCAUGGAAUUCUCGGGUGCCAA`: “RBNS enrichment (R)” 0.651.
For `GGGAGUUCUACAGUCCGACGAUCGAGGUGCCCAGAUUCCUUUCCCUUUAACGCGUGUAAAGUUCUGUGCAUUUGAUUGUAAACUGUACUCGUCCGUGUGGAACUGUACACACCUUAGUUACUUCAUUUGGCUCUGGAAUUCUCGGGUGCCAA`, “RBNS enrichment (R)” read 0.442.
For `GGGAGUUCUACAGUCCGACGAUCGACUGUCUUCUGGGCCCUUCCAAGCCCAUCUGUGGAGUCGCCUCCCUCCUUCCCCCCACCCCCGUGUGAAGUGUGUUAUCACCAGCAGACACUGCCGGACUCCUGCCCACUGGAAUUCUCGGGUGCCAA`, “RBNS enrichment (R)” read 0.437.

Block 4 — technique: RNA Bind-n-Seq; molecule type: RNA; sample: in vitro; tested at: not given; reference: input RNA pool; reading: higher = stronger binding
Target: RING finger protein unkempt homolog, zinc fingers 1-6, GST-SBP tag (UNK, Homo sapiens, UniProt Q9C0B0, residues 30-357)
Notes: RNA with constant flanks, human and mouse sites, ends assumed
Residues (chain): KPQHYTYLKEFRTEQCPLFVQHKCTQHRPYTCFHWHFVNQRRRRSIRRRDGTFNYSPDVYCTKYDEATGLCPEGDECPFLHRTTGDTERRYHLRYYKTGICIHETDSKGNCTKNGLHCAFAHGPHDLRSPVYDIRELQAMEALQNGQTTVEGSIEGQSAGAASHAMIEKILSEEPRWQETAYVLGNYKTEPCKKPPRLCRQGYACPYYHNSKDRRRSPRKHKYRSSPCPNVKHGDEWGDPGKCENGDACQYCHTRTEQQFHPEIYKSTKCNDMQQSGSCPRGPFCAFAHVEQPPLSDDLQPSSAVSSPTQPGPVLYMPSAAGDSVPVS
For `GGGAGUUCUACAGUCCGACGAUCCCAUUUGACCCAUUGACCCUGCCAGAGAAGCCCCUGGCUGGAGACCUUCCAGUAGACAUGGAAUUUGGAGAGGAUCUGCUGGAAUCUCAGACUGCCCCAAGUCGAGGAUGGGCUCCCCCACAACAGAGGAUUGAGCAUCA`, the bound/input enrichment was 0.159 ratio.
For `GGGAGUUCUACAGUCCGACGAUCGCAAGGCCAGAGGAACUGACUCCCCACGUGAUGGUGCUCCUGGCCCAGCACCUGGCCCGGCACCGGUUGCGGGAGCCCCAGCUUCUGGAAGCCAUUGCCCACUUCCUGGUGGUUCAGGAACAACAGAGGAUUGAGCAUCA`, the bound/input enrichment was 0.0634 ratio.
`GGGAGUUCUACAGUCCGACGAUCUGUAUACUGUUUUACCCAAACCCAGCAAAAAUGCAUGUGUCUGUCCACCAAAGGACAUGCACUAGAAUAUUUAUAGCCUAAAACUGCACAAAACAGAACUAUCUUAAGGCACAUGUGCAACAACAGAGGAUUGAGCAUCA` gave a bound/input enrichment of 0.886 ratio.
For `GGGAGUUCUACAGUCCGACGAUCCACAUCAAAUAUGCUGUCACCACUGGGGACCACGGGAUCAUUCGAACUCUGGAUUUACCCAUCUAUGUCACACGGGUGAAGGGCAACAAUGUAUACUGCCUAGACAGGGAGUGUCGUCCCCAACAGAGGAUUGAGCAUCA`, the bound/input enrichment was 0.122 ratio.
For `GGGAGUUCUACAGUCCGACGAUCUUUUUUAGGAUUUGCCCUCUCUUUUCUCUCCUCCCAGGAAAGGGAGGGGAAAGAAUUGUAUUUUUUCCCAAGUCCUAAAUCAUCUAUAUGUUAAAUAUCCGUGCCGAUCUGUCUUGAAGGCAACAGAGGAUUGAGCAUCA`, the bound/input enrichment was 0.383 ratio.
For `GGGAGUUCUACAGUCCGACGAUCCCUUCUAAUUUUGGAGAUUUUUCUCAGAAUGUUUCUACACCUACUGAACAGCAGCAGCCAUUAGCUCAAAAUCCUUCAGGGAAAACAGAGUAUAUGGCUUUUCCAAAACCCUUUGAAAGCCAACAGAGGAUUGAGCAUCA`, the bound/input enrichment was 0.103 ratio.
The bound/input enrichment of `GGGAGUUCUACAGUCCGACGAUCAUACAUGGCGUAAUUAACUCAGCUGUUCUAGCUGCAGUACUGCUGCAGUGAUCCACCCACAUUUAGGAUGUGCUGACAGAUAAGCUCUUUGCCUACAAUACAUGGAUAAUUAGUGCUAUACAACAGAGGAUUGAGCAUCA` is reported as 0.725 ratio.
`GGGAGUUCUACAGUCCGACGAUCAGAAAGCCAAGGCCUGUCUCGCUCUUCUCUACACCCGUGGUGGAAGAGGUGGAAGUGCCCUCCAGCCUGGACGAGAGCCCCAUGGCUUUCUAUGAGCCCACCUUGGACUGUACCCUCCGGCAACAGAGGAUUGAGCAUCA` gave a bound/input enrichment of 0.208 ratio.

Block 5 — technique: aptamer microarray, sandwich; molecule type: DNA with 2'F-ANA; sample: in vitro; tested at: 200 nM; added: Cy3 exosite-II aptamer, 400 nM; reading: higher = stronger binding; sequence: GGTTGGTGTGGTTGG
Target: Prothrombin, mature alpha-thrombin (F2, Homo sapiens, UniProt P00734)
Notes: whole 15-mer aptamer, many near background
Under “mean fluorescence intensity”, `2'F-ANA at 2 3 5 10 12 13 14 15` is recorded as 140 a.u.
For `2'F-ANA at 1 5 6 7 8 10 11 12 13`, “mean fluorescence intensity” read 52.2 a.u.
Under “mean fluorescence intensity”, `2'F-ANA at 3 4 5 6 11 12 13 14` is recorded as 52.1 a.u.
Under “mean fluorescence intensity”, `2'F-ANA at 3 6 7 8 9 10 14` is recorded as 419 a.u.
`2'F-ANA at 4 5 7 8 10 13 14 15`: “mean fluorescence intensity” 48.5 a.u.
`2'F-ANA at 1 2 3 5 8 9 10 11 13 14 15`: “mean fluorescence intensity” 76.7 a.u.
`2'F-ANA at 1 2 4 7 13 14` — result for “mean fluorescence intensity”: 50 a.u.
`2'F-ANA at 3 4 5 9 10 13 14 15` — result for “mean fluorescence intensity”: 53.7 a.u.
`2'F-ANA at 2 3 4 7 9 10 11 12 13`: “mean fluorescence intensity” 302 a.u.
`2'F-ANA at 1 3 5 8 9 10 11 13 15` — result for “mean fluorescence intensity”: 48 a.u.
Under “mean fluorescence intensity”, `2'F-ANA at 1 2 3 4 7 11 13 14 15` is recorded as 71.2 a.u.
Under “mean fluorescence intensity”, `2'F-ANA at 1 5 8 10 12 14` is recorded as 44.1 a.u.
`2'F-ANA at 1 4 10 11 14`: “mean fluorescence intensity” 46.3 a.u.
Under “mean fluorescence intensity”, `2'F-ANA at 2 3 4 7 8 10 11 13 15` is recorded as 205 a.u.
`2'F-ANA at 1 2 3 4 5 8 9 12 13 14 15`: “mean fluorescence intensity” 49 a.u.
`2'F-ANA at 1 2 3 4 6 9 11 15` — result for “mean fluorescence intensity”: 111 a.u.
Under “mean fluorescence intensity”, `2'F-ANA at 1 2 3 4 5 6 7 8 9 11 14 15` is recorded as 53.4 a.u.
For `2'F-ANA at 3 4 5 7 8 13 14`, “mean fluorescence intensity” read 54.9 a.u.
`2'F-ANA at 2 5 8 9 10 11 13`: “mean fluorescence intensity” 49.3 a.u.
Under “mean fluorescence intensity”, `2'F-ANA at 3 7 9 10 11 12` is recorded as 617 a.u.
`2'F-ANA at 1 2 3 6 9 11 13 14 15` — result for “mean fluorescence intensity”: 112 a.u.
